Experimental data of several laboratories.
Numbered parts are unrelated; each lists some results of a single study. Positions count from the first letter of the parent shown.

Study 1 — technique: RNA Bind-n-Seq; form: RNA; medium: in vitro; concentration: 365 nM; relative to: no-protein control; reading: higher = stronger binding
Target: RNA binding protein fox-1 homolog 2, RRM domain, GST-SBP tag (RBFOX2, Homo sapiens, UniProt O43251-10, residues 100-194)
Notes: natural RNA segment, single round, ends assumed
Residues (chain): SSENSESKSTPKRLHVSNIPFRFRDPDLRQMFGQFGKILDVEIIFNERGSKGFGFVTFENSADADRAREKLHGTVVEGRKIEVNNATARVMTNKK
Oligonucleotide | RBNS enrichment (R)
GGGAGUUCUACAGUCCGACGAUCCGGCCCCAUUUACUGACCCCGCCCCCUUUUCGAGGUUAUGCUCACCUGGUCAGCUCCUCACGUAAUUGGGGGUGGAGGGAAAGCAUGGUGGUGCCCUGGGCCGUCCCUGUUGGAAUUCUCGGGUGCCAA | 0.247
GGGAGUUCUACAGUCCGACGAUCAUGGACGACGAAGAAGACUUCAACAAUUCACCUGCCCUGGGGAACAACAGCCCGUGGAACAGUAAACCUCCCGCCACGCAAGAGACCAAAUCAGAAAACGCCCCACCCCAUGGAAUUCUCGGGUGCCAA | 0.879
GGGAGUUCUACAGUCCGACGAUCCCUCUGCCUGGCCUGUUCCUGUCCCUGUCUUCCUACCUCUAUAGCAAGCCCAAAGUGUCUUUUCAGGAGGGCCAGUAGCCCCCAGGCUGCUGCCCACAUUAGCACAGUUUUGGAAUUCUCGGGUGCCAA | 0.303
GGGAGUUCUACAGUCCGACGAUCUUAGCCUCAGGCCUCAUGAGGGUCUCCACAGGGCCGGAGCUCAGGUUACACCACUCCUUCGUCCUUACAGGAGAUGUAGGGAGAAGAAUCUGCAGGCUGCUUGUAGGACUUGGAAUUCUCGGGUGCCAA | 0.288
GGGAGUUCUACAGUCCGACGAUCAUAGAGGUUCCAGUUUACAAACUCAAGUGAACAGUAAUCUUUGGAAGCUGCCAGUCUAAAUUCUAAAUAGUGUAUCUGAAAUCUCAGUUCCCAAAAUAGUUGUCAGGUUUUGGAAUUCUCGGGUGCCAA | 0.303
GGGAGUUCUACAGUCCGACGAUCAAUAAAGCAAAAUAACCUACUAUCAAAAUAGAAAUGUUGCUAUCUUUAUAAGUGCAAUUUAAUUUGUAAAUAGAGUUUGAAUCAAAGUAUCACAAAAUACUGCUUCAAGAUGGAAUUCUCGGGUGCCAA | 0.412
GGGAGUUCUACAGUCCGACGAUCGGCCUGGCCUCAGAACCUGGUGGCUCCUGCCUGCUCCUUCACUUUUGUAAAACCAUCCCCUUCACCAGAAUGGUAUUAACUCCUGGUGCUUUGUACUACUGGUCCAGCUGUGGAAUUCUCGGGUGCCAA | 0.569
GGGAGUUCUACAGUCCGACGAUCCCAACCAUGGAGGAGACGCAAGGUGAAGACAUCGGGAAACAUCACACCGCACACGCUGUCGUCUUUUUUUCACAAGCUCAAUUGUUACUUUUCUCUGCUUCCUCAGCCCAUGGAAUUCUCGGGUGCCAA | 0.321
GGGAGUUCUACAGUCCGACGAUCUUUUGUUUUGGGGAAAAAAUUGGUAGGUGUCUAAUUACUGUUUACUUCAUUGUUAUAUUGCAGUAAAAGUUUUAAAACAACCAUUGCAUGUUUGCUUUUGAUGUAUCCCUUGGAAUUCUCGGGUGCCAA | 34.5
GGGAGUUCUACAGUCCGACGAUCCAUUUUCCAAAGUUUCAUUGCAUUCUCCCUUGGGGAGGCUGUGAGAGAGGGCUUGUAUCCCUCUUGUGCUAAGCAGACUCUACUCCUAACUGACUUCAAUAUUUCAGCAGUGGAAUUCUCGGGUGCCAA | 0.273
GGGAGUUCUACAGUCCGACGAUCCUCACAACACCACACCUGGCAAAUUUGAUUUUUUUUUUUUUUCCAGAGACGGGGUCUCGCAACAUUGCCCAGACUUCCUUUGUGUUAGUUAAUAAAGCUUUCUCAACUGCUGGAAUUCUCGGGUGCCAA | 0.35
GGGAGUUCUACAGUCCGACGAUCUUAGUCACGGAGUUGCCAUGGCAUGUAGUAGAAAACCACAGGAAGAAUGGUCAUAUUCACUUUGUGGGCUGCCCAUAAUCUUUCUUGGGCAUUCACAACUCUUGAGUUUGUGGAAUUCUCGGGUGCCAA | 2.16

Study 2 — technique: protein-binding microarray; form: double-stranded DNA, one strand shown; medium: in vitro; concentration: not given; reading: higher = stronger binding
Target: Myc proto-oncogene protein, bHLH-zipper, MAX partner unstated (MYC, Homo sapiens, UniProt P01106, residues 368-449)
Sequence of UniProt P01106 (368-449, looked up): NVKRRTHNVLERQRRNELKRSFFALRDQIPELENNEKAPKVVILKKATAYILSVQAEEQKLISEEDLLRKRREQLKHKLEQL
Notes: k-mer, scored over probes, only values ≥0.25
Oligonucleotide | E-score
AACGAGGC | 0.277
CGAGGGGA | 0.297
ACAATGCG | 0.256
CGTCATGC | 0.287
ACCATGCC | 0.407
AACCACGA | 0.395
CGTGACCC | 0.277
GCATGACC | 0.342
ACCTGCGT | 0.252
ACACGACC | 0.29
AGTACACG | 0.358
ACATGGCG | 0.398
GGTGGGGA | 0.289

Study 3 — technique: universal PBM; form: double-stranded DNA, one strand shown; medium: in vitro; concentration: not given; reading: higher = stronger binding
Target: Sal-like protein 4, full length isoform B (SALL4, Homo sapiens, UniProt Q9UJQ4-2, residues 1-616)
Notes: 8-mer, flanks averaged, mean of replicates
Oligonucleotide | E-score
AACCCCCC | -0.252
CTTAGACC | -0.0249
CGAGTTGA | -0.16
CGGTGAAC | -0.145
AAACTGAA | 0.139
AAGGCCAG | -0.177
ACACAAGG | -0.105
AGTACTAG | 0.107
CGCTAGCA | -0.0874
CGCGCTCC | -0.281
AAGGTCCG | -0.298
AACAGAAA | 0.228
CCCGGGGC | -0.43
ACGGGCGG | -0.321

Study 4 — technique: RNAcompete; form: RNA; medium: in vitro; concentration: 20 nM; notes: 7-mer, probes averaged, single round; relative to: mean of 7-mers; reading: higher = stronger binding
Target: PABPC1L2, full length, GST fusion (mouse, UniProt A0ABA7IW68)
Construct (chain): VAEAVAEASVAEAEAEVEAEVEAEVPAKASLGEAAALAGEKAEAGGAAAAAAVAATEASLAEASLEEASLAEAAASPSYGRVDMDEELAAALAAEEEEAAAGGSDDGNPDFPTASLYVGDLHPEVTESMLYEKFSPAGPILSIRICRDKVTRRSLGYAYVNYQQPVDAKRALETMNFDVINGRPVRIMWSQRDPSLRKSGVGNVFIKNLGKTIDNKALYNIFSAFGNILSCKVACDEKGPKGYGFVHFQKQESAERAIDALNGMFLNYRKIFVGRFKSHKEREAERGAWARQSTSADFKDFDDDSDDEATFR
Oligonucleotide | 7-mer Z-score
UUACCGA | -0.182
GAGUCGC | -0.3
CGCUACC | -0.304
ACACGAU | 0.104
GCUUAUC | -0.322
GGGUCCA | 0.0968
CAAUGCA | -0.0428
UGGUUCC | -0.159
ACCAAUU | -0.11
AAUCACG | 0.234
CUUGUCG | -0.396
GGGCCAA | 0.39
CGGUCCA | -0.161
CCGAGGG | -0.079

Study 5 — technique: DHFR PCA, deep sequencing; medium: yeast; added: (+)-ABA 0.11 µM; relative to: wild-type fitted maximum; reading: higher = stronger binding
Target: ABI1, truncated, D143A, DHFR fusion (Arabidopsis thaliana)
Notes: methotrexate growth selection, single substitutions
Starting sequence: PYL1, truncated, DHFR fusion (Arabidopsis thaliana); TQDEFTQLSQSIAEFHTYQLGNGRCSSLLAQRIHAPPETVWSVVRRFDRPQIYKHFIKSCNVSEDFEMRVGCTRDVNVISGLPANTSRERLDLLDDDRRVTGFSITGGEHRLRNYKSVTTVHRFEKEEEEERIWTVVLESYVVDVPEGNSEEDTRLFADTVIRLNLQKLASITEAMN; partner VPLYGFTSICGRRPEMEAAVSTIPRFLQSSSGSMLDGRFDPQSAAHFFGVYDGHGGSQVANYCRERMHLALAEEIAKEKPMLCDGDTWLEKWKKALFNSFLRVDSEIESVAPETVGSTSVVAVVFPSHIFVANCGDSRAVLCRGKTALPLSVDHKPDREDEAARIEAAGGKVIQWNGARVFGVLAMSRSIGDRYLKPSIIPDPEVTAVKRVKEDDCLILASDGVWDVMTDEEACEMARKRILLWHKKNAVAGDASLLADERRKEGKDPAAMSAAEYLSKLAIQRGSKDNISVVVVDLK
Variant | relative binding score
Q167R | 35.9%
D65N | 36.6%
D159I | -2.86%
S140M | 9.08%
L28C | 16.6%
N177V | 50.5%
P36Q | 14.9%
E139M | 9.16%
K116N | 5.46%
R74P | -2.71%
P36C | 3.04%
T17M | 5.09%
V137S | -3.59%
N177D | 54.5%

Study 6 — technique: RNA Bind-n-Seq; form: RNA; medium: in vitro; concentration: not given; relative to: input RNA pool; reading: higher = stronger binding
Target: RING finger protein unkempt homolog, zinc fingers 1-6, GST-SBP tag (UNK, Homo sapiens, UniProt Q9C0B0, residues 30-357)
Sequence of UniProt Q9C0B0 (30-357, looked up): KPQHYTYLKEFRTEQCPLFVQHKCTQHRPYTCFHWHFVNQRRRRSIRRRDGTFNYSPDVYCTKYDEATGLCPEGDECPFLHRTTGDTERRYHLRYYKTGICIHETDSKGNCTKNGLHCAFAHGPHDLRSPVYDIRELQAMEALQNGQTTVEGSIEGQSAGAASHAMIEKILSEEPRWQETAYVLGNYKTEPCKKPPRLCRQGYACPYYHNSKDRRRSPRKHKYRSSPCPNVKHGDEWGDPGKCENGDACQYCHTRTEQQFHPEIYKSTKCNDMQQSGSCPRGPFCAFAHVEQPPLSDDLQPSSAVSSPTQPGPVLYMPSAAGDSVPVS
Notes: RNA with constant flanks, human and mouse sites, ends assumed
Oligonucleotide | bound/input enrichment
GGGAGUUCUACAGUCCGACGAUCUGUGUAUGUACUGGCAGUAUUAAGUUUAUCCAUCAAGAAUGCUUAGUUCAAUGGCUGAAACACAGUCGAAAAGAAUACUGUGAAUUAUGCAAGCACAGAUUUGCUUUUACACCAAGCCGCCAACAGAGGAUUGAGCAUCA | 0.243 ratio
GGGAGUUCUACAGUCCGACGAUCGUGAUGUUACUCUCCAUUUUUGGUACCAGUUCUGAGACUGUAAGACUUUUCAUCUGGGACUUUAGCACACACUGAAUCGAAGUUGUGAUACGCGGAGCGGGAGGUGGGCAUAGACUCUAUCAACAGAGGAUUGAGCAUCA | 0.443 ratio
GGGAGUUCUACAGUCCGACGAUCGGAGGGUUUAUUAGAGGUCUAGUAGCCCAGAUCUGCCGCAGUGGACUACUCCAAGGAUAUGAGGACAAGCUAAGGGAUCCAGCAGUCCAAAGCCUCUUACAGCCUGGGGAGUGCGAGAGACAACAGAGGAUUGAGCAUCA | 0.343 ratio
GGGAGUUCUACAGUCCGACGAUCGACGUUAAAAAUUUUCUGUAUGCCUGGUGUGGCAAAAGGAAGAUGACCCCAUCCUAUGAAAUUAGAGCAGUGGGGAACAAAAACAGGCAGAAAUUCAUGUGUGAGGUUCAGGUGGAAGGUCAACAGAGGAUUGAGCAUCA | 0.301 ratio
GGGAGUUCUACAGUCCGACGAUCGGCAUUGCCCUUGACCAUCUUGGUCGAACCAUCUUCUGGACGGACUCUCAGUUGGAUCGAAUAGAAGUUGCAAAGAUGGAUGGCACCCAGCGCCGAGUGCUGUUUGACACGGGUUUGGUGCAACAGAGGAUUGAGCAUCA | 0.367 ratio
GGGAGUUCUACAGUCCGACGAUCUUUGAGAAGAAGGAGAAAAAUAAAGAGGCAAUAUAUAGUGGAUAUAUUAGAAACAGAAAGCCCUCUGAUUCUGUUCACAUUACAAAUGAUGAUGAAAGAUUUCUACAUCAUCUUAUCAUACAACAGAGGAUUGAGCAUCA | 1.44 ratio
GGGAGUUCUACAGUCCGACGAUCCUGAACAAAAUUACAAAGAAUCUAGGAUUUGGGAUGGGAAUUGAAUUCCGUGAAGGCUCUCUAGUAAUCAAUAGUAAAAAUCAGUACAAGCUAAAGAAAGGGAUGGUUUUUAGCAUCAAUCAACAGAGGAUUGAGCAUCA | 61.5 ratio

Study 7 — technique: protein binding microarray; form: double-stranded DNA, one strand shown; medium: in vitro; concentration: not given; relative to: not given; reading: higher = stronger binding
Target: Histone acetyltransferase KAT6A, both winged helices, GST fusion (KAT6A, Homo sapiens, UniProt Q92794, residues 1-181)
Notes: 8-mer, flanks averaged, mean of 2 arrays, mostly near background
Residues (chain): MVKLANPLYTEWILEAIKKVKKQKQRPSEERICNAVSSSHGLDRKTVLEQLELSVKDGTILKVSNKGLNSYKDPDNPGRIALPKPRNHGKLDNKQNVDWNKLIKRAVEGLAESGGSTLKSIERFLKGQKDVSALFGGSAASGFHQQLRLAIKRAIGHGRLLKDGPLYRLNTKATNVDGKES
Oligonucleotide | E-score
AGCTTCCG | 0.197
CATGGCGC | 0.252
CGAGGGAC | 0.0649
CTCGACGA | -0.15
CGCGAGAG | 0.242
GCTACCGA | 0.113
CAGCCAGG | -0.258
CACCCTCC | -0.0983
GACATCGA | 0.0795
GCTCCACA | -0.0545
GAGTAAAC | -0.0565
CCAACATA | 0.0184
AAGGCGGC | 0.167
CATCGTAA | 0.118
ATAAGTCG | 0.0125
ATTCTCGG | 0.123

Some of these lines once more (study 4):
Oligonucleotide | 7-mer Z-score
UUACCGA | -0.182
GAGUCGC | -0.3
CGCUACC | -0.304
ACACGAU | 0.104
GCUUAUC | -0.322
GGGUCCA | 0.0968
CAAUGCA | -0.0428
UGGUUCC | -0.159
ACCAAUU | -0.11
AAUCACG | 0.234
CUUGUCG | -0.396
GGGCCAA | 0.39
CGGUCCA | -0.161
